Assay results pooled from the literature.
Each numbered part is a random draw from the data of one study; scales do not carry over between parts.

Study 1
Target: Histone acetyltransferase KAT6A, winged helix 1, GST fusion (KAT6A, Homo sapiens, UniProt Q92794, residues 1-85)
Method: protein binding microarray
Form: double-stranded DNA, one strand shown
Matrix: in vitro
Concentration: not given
Setting: 8-mer, flanks averaged, mean of 2 arrays, mostly near background
Relative to: not given
Direction: higher = stronger binding
Endpoint: E-score
Target sequence (chain): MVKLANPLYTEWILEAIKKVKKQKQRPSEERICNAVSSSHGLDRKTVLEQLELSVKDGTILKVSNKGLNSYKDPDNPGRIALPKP
ACGCGTAC: 0.364
ACAGACTA: -0.215
ACAAAGGG: -0.156
CCGGACTC: 0.168

Study 2
Target: Interferon regulatory factor 5, full length, phosphomimetic (IRF5, Homo sapiens, UniProt Q13568-2, residues 1-514, K96S/S451D/S453D/S456D/S462D)
Method: protein-binding microarray
Form: double-stranded DNA, one strand shown
Matrix: in vitro
Concentration: 250 nM
Setting: 60-bp whole probe
With: salmon DNA 0.4 mg/ml
Relative to: random background probes
Direction: higher = stronger binding
Endpoint: log fluorescence
GCCTAGCACGACGATTTAAGTCTCGAGACGTGCTAGGTCTTGATTCGCTTGACGCTGCTG: 0.328 z-score
GCCTAGCACTCAATTGGTTGAACATGACTGTGCTAGGTCTTGATTCGCTTGACGCTGCTG: 0.121 z-score
GCCTAGCACGACGGTTTCGTTTCCGGGACGTGCTAGGTCTTGATTCGCTTGACGCTGCTG: 6.06 z-score
GCCTAGCACTCAAAAATCTCAATGGGACTGTGCTAGGTCTTGATTCGCTTGACGCTGCTG: -0.00137 z-score

Study 3
Target: Prothrombin, mature alpha-thrombin (F2, Homo sapiens, UniProt P00734)
Method: aptamer microarray, sandwich
Form: DNA with 2'F-ANA
Matrix: in vitro
Concentration: 200 nM
Setting: whole 15-mer aptamer, many near background
With: Cy3 exosite-II aptamer, 400 nM
Direction: higher = stronger binding
Endpoint: mean fluorescence intensity
GGTTGGTGTGGTTGG (2'F-ANA at 3 4 5 8 9 15): 105 a.u.
GGTTGGTGTGGTTGG (2'F-ANA at 1 3 5 7 9 13 14 15): 48.8 a.u.
GGTTGGTGTGGTTGG (2'F-ANA at 2 3 6 8 9 10 14): 280 a.u.
GGTTGGTGTGGTTGG (2'F-ANA at 1 4 10 12 15): 58.9 a.u.

Other studies, line by line
PhoQ, residues 284 288 289 292 302 303 SCEHLI  fold induction (PhoP, residues 12 14 15 18 19 LFHKL (Escherichia coli, UniProt P23836); Sort-seq, measured: YFP reporter; E. coli; PhoQ-PhoP variant library, with: 10 µM Mg2+; relative to: high Mg2+ state, higher = stronger signaling): 17.2

Excerpt of the above (study 1):
ACGCGTAC: 0.364
